Measured values from different studies.
Every numbered part comes from another study and shows a few of its results, in no order.

Sample 1 — technique: RNA Bind-n-Seq; form: RNA; sample: in vitro; tested at: not given; reference: input RNA pool; direction: higher = stronger binding
Target: RING finger protein unkempt homolog, zinc fingers 1-6, GST-SBP tag (UNK, Homo sapiens, UniProt Q9C0B0, residues 30-357)
Setting: RNA with constant flanks, human-mouse chimeric sites, ends assumed
Residues (chain): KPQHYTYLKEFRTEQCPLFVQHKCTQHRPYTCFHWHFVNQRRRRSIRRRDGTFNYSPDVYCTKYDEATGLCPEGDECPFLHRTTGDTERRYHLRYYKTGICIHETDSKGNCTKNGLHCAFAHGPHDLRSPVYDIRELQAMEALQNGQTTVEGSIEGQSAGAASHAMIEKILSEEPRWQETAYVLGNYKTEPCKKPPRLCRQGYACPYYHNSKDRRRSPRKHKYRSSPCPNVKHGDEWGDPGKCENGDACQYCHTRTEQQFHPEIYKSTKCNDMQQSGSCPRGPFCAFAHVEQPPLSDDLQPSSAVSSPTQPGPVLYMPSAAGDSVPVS
Sequence	bound/input enrichment [ratio]
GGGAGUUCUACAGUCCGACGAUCAAAGAGUGGAUAGAGUGUGCACACGGGAUCGGUGGGACCCGGGCGAAGAAAGAGUGCAAGAUAGAGUAUGAUGAUUUCGAAGAGUGCUUGCUUCGGUACAAAACGAUGAGGCGAAUGCAUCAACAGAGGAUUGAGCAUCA	0.719
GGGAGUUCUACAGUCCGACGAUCGCGGCAGAAUCAUGGAGGACAUAAUGCAGCUCCCCAAGUCGCGCAUCAACGCCAGCAUGUUACCACAAUUCAUCGACCGGCCCGUGUGCUUCGUGGGGAAGCUGGAAAAGAUUCAUCCCACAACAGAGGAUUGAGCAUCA	0.0712
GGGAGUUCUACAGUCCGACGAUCUAACCACAUCAAGAUGGUUGGGAAGCUGAAGCAGAACUUACUAUUGGCGUGUCUGGUGAUUAGUUCUGUGACCGUGUUUUACCUGGGCCAGCAUGCCAUGGAGUGCCAUCACCGGAUAGACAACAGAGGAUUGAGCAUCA	0.169
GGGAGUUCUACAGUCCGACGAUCGCUCUUGGGAAUGUAAUCAGCGCCUUGGGGGACAAGAGCAAGAGAGCCACCCAUGUCCCUUACAGAGACUCUAAGCUAACAAGACUAUUGCAGGAUUCCCUUGGGGGUAACAGCCAAACCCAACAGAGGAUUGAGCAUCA	0.205
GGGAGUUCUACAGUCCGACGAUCCUGGCACUCUAUCAGAUAUAUUAAUUUUUUAAUGUAGAUGUAAUUUUAAAAAUGAAUGGCUACUUUACACGUUUAACUAGGCUCUUACUAUAUAUGUGUGUGUAUAUAUAUAUAUAUAUACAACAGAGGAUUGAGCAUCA	8.67
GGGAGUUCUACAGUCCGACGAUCGGGACUGAUUCAUUCCAAGGACAGGCCACCCCAUUUGAUGCCUGGACUGAUGACAGUAUGGAAGGGCCUAGUCAAAAUUUUGAAGCUGAGUCAAUUCAGGAUGCCAUGAGUAUGGAAGAGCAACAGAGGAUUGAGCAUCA	0.429
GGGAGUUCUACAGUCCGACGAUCCUGGCCUGGCCCUCCCCAGGGGCCUCCUUCUCUGCAUUCACUGCUUCUGCAUCAGAUACUUUCAGCUGCAACUCCCUACUGGGUGGGGCACCCAUUUCAGGCAGAAGGUUUUGGUACCCUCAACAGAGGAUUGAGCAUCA	0.269
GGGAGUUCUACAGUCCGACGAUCCACAGAGCAGCACCUACCCCCUCCUCCUUUCCACACCUGCAAACUCUUUUGCCUGGGCUGAAUAUUUAGUGUAAUUAACAUCGCAGCUUGAGGGCUCCUGUGGCAAAUUCCCGGAUUAAACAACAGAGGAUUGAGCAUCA	1.63
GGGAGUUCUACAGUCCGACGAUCUCUGGCCACACUCGUGUGUAUGGUGUUUGCUUUGUGGACACUUCACUGGGCAAGUUUUUCAUCGGCCAGUUUUCAGAUGACCGCCACUGUUCCAGAUUUAGGACGCUAGUGGCUCACUAUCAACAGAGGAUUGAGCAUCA	0.18
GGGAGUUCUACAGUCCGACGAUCUUACCCGAGAACGAGGAUGAGCUGGAGAGCACCAACAGGCGCUACACCAAGAGGGACUGCAGCACUUUCCUCAGAACUAGUGAGACGGGCAUCGUGGAUCAGGUUAUGGUAACUCUCAACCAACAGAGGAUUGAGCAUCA	0.094
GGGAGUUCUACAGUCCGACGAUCCGCGUCCUCUCGCUGCUCCUGCGGGGCAGCUGGGAACCAUUCCGGGACUGGUACCCUGCACACAGCCGCCUCUUCGAUCAAGCUUUCGGGGUGCCCCGGUUGCCCGAUGAGUGGUCGCAGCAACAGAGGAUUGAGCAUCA	0.0694

Sample 2 — technique: competition protein-binding microarray; form: double-stranded DNA, one strand shown; sample: in vitro; tested at: 2 µM; together with: Cbf1 competitor, 0.05 µM; direction: higher = stronger binding
Target: Phosphate system positive regulatory protein PHO4, full length, GST-tagged (PHO4, Saccharomyces cerevisiae, UniProt P07270, residues 1-312)
Setting: whole 60-bp probe, lowest competitor level
Construct (chain): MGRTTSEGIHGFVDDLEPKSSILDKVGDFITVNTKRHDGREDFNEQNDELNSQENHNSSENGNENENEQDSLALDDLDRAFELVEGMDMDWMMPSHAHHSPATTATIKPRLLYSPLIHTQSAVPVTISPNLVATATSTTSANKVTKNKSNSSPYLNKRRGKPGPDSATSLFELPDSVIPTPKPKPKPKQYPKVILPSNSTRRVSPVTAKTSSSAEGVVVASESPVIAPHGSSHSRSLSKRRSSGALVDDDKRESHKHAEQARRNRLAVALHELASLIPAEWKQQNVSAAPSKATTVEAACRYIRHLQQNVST
Sequence	fluorescence intensity [a.u.]
AAATTACTAAGTTGATCGGTGGGTGACGCCGTATGAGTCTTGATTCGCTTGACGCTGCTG	3550
AAAGCGGTAATTTGTCACTAAACTTCACATATCTATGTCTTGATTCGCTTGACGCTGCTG	3250
TGCGCAACAACTTGTCACCAGACTTTATGTCTAGAAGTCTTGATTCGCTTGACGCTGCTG	3100
AAAGCGGTAATTTGCTTTGTGGGTGCAGATATCTATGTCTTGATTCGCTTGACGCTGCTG	3830
GTCTTGTCTCATTGTCACTTTACTTTCCCCACTTCAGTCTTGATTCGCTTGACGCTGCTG	4290
ACTACGAGGGCCCTGTTCGTGGGACAGATTTCCATCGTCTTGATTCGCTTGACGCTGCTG	5750
CTACGCCGCTATTACTACGTGCTTTTTCTTTTGATTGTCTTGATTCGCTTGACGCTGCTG	7580
GTCTTGTCTCATTGTATTGTGGGTGTCCCCACTTCAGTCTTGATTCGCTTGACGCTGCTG	4940
AAATTACTAAGTTGTACAGTGGGTGACGCCGTATGAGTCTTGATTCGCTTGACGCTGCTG	4160
TTACCCCAACATTACCTCGTGGTGAGTGGAGAATCAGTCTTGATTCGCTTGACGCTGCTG	12000
AAATTACTAAGTTGTCACCACACTTACCCCGTATGAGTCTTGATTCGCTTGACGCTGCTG	5460
TGTGTTGGATCTCAACACGGGGTACCTCCGTATAAGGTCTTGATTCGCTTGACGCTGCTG	9410
CGTCCTAGTGATTTTCACGTGTGATCCATGAGGAAGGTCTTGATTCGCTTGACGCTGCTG	12400
TTCCATCCCACATTCCTCGTGTTGGATTGGCTGCAAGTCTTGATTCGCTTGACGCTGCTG	9210
CTAACGAAGGTTTGTCACGTGGGTGACAAGCCAAGTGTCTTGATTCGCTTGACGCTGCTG	13900
TTGGGAAATATTCCTCACGTGGAATTTTTTGAGCGCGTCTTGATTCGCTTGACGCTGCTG	12400
TGGGGCAAAAACCATCACGGGACTTATGTTTCGGGAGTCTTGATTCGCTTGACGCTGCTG	5950

Sample 3 — technique: RNA Bind-n-Seq; form: RNA; sample: in vitro; tested at: 365 nM; reference: no-protein control; direction: higher = stronger binding
Target: RNA binding protein fox-1 homolog 2, RRM domain, GST-SBP tag (RBFOX2, Homo sapiens, UniProt O43251-10, residues 100-194)
Setting: natural RNA segment, single round, ends assumed
Target sequence (chain): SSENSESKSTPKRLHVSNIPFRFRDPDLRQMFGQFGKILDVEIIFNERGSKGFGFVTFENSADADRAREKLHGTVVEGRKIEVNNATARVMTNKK
Sequence	RBNS enrichment (R)
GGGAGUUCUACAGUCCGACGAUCUUCCUCAUUGUUGUUUGGUAUGCGCACAGUUCCUGUGGGACUGGGCCGUGAGUUUUCCAUUGGAAAGAAGUUCAGUGGUCCCAUUGUUAACUCAGCCUCAAAUCUCAACUUGGAAUUCUCGGGUGCCAA	0.335
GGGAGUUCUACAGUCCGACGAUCAGAGAGGAAAAAAAUCACCUUUUAUUUGUUUGGGUCUCAUUGUCAGAAUUAUUAUUCAGAUCAAGAAAUCUGUGUCGAUAAAACCUAAUCUCAUAUUGGAGAGUGAAUGUUGGAAUUCUCGGGUGCCAA	0.49
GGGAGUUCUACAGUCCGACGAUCUGAAGGGUUUGGGGUAGCAUUCUGUUUUUUCUUUGCUUUUUCAUUUCUAGCAGAGGCAAGAAUACAUAUUCAUAUACGCUUACUUAUGAAUUACCAUUUUAACAUUUAGAUGGAAUUCUCGGGUGCCAA	0.65
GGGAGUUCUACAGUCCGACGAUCGAUGGAAGUGCAUCCUCUGGGAAAAAGAUAAUGGCUUCUGAUUCAACAUAGCCAUAGUCCUUUGAAGUAAGUGGCUAGAAACAGCACUCUGGUUAUAAUUGCCCCAGGGCUGGAAUUCUCGGGUGCCAA	0.404
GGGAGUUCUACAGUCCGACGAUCCCGCUGCUCUGGAGGCGGAGCUUAAUGACCUCAUGUGACUUGGACCCGCCCCAUACCAGCCCUUGGCUUGGGUCCUUUUUCUCCAGAAAAACAUAUAUUUUGCAGAGCUCUGGAAUUCUCGGGUGCCAA	0.414
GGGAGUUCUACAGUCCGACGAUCACCCAGGGGUGGUGGUCCCAGCCAGUUUGGUGCUGACGGUGAGAGGAAAUUAGAAUCUGUUUGCAAAUUGUCCAACCCACCCCCUCAACAUGAGGGGCUUCCAUUUUCUGUGGAAUUCUCGGGUGCCAA	0.834
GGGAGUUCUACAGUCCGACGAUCGUCGAUCUUUGAUAGUAUGUUCUGGAGUCUACUCCCCAGGAGCCAGGACAGGCGUGAAGAUGGAGUCCUUGUCGCAGCUGGAGCCUUGCCUAGCUGGUGAUCACACAGCCUGGAAUUCUCGGGUGCCAA	0.363
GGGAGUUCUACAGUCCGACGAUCAUGGCAUCUCUCGCCUCCCUCGCUCGUCUCAGCCCAGCCCUGGAAGACUGAGAAUGUUCCCCCAAAUCUCCUCUGCCAACCAGAGCUCUGGGCACAGAUUCUGGUGGCUCUGGAAUUCUCGGGUGCCAA	0.406
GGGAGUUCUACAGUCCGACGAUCUUGAAGGACUAAAUUAUUAAUUAUUGUUCAGUAAUGAUCACCUAAUUUUUCCCAUAAGAAUUAUAAGCUGCAUUUCUAAGGCAUAGCUCCAAUUAUGAGAUAAAAUUUAUUGGAAUUCUCGGGUGCCAA	0.505

Sample 4 — technique: protein binding microarray; form: double-stranded DNA, one strand shown; sample: in vitro; tested at: not given; reference: not given; direction: higher = stronger binding
Target: Histone acetyltransferase KAT6A, winged helix 2, GST fusion (KAT6A, Homo sapiens, UniProt Q92794, residues 85-181)
Setting: 8-mer, flanks averaged, mean of 2 arrays, mostly near background
Target sequence (chain): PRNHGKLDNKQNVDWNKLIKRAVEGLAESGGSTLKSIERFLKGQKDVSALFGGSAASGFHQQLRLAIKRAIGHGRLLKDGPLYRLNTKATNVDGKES
Sequence	E-score
AGTATTTA	-0.102
TTCCGAAA	0.0163
AGGGGTAT	-0.191
GATCGATA	-0.249
CCATCAGG	-0.0324
ACATGGTG	-0.0537
ATGCAGAC	0.0984
AGGACACG	-0.207
CCAAGCTA	-0.0254
AGTACTTG	0.0181
CCCTTACC	-0.239
ATGAGTAA	-0.0423
TCACTAAA	0.00754
CAGGAAGA	0.0426
GCGGTGGA	0.219
GGGACGAC	0.0971
ACTGCCAA	-0.041
CTCCGGCA	0.181
CGGAGCAA	0.0541
CTTTGGGC	0.139
ATAGTGCC	-0.0566
CCGCAGAA	0.163
ATGTGGGG	-0.175
AGACGCCC	0.0988
CGCCTTTC	0.105

Repeated from above (sample 4):
Sequence	E-score
AGTACTTG	0.0181
CCCTTACC	-0.239
ATGAGTAA	-0.0423
TCACTAAA	0.00754
CAGGAAGA	0.0426
GCGGTGGA	0.219
GGGACGAC	0.0971
ACTGCCAA	-0.041
CTCCGGCA	0.181
CGGAGCAA	0.0541
